Measured values pooled from the literature.
Compare with care: the assays were run in different laboratories. “And” joins repeats or separate records; there may be more than shown. ± marks the error that the study gave.
CTSB: Cathepsin B (CTSB, Homo sapiens, UniProt P07858)

| Compound | tested on | assay | test system | conditions | quantity | result |
| --- | --- | --- | --- | --- | --- | --- |
| CNC(=O)C[C@H](Cc1ccc(F)cc1)NC(=O)[C@@H](Cc1ccc(Cl)cc1Cl)NC(=O)[C@H](N)Cc1ccccc1C#N | CTSB | enzyme activity, inhibitor | human liver | – | IC50 | > 10 µM |
| CC(C)CC(C(=O)N1CC2(CC1C#N)C(=O)Nc1ccccc12)N(C)C(=O)c1cc2c(F)cc(F)c(F)c2[nH]1 (stereo not drawn) | CTSB | enzyme activity, inhibitor | – | – | IC50 | > 100 µM |
| Cc1ccc(OCCN(C)C)cc1C(=O)N[C@H](C)c1cc(-c2cnn(C(C)C)c2)nc2ccccc12 | Vero E6 | – | – | 125 µM | viability | 2.57% and -0.395% |
| CCC(C(=O)Nc1ccccc1C)n1cccc2nc(SCc3ccc(F)cc3)nc1-2 (stereo not drawn) | CTSB | enzyme activity, inhibitor | – | – | IC50 | > 100 µM |
| CC[C@H](C)[C@H](NC(=O)[C@@H]1CCCN1C(=O)CNC(=O)[C@H](CC(N)=O)NC(=O)CNC(=O)[C@@H]1CC(=O)O[C@H](C)[C@H](NC(=O)[C@H](Cc2ccccc2)NC(=O)[C@@H](NC(=O)[C@H](CCCCN)NC(=O)CNC(=O)[C@H](CC(=O)O)NC(=O)CNC(=O)[C@@H](NC(=O)CNC(=O)[C@H](CC(=O)O)NC(=O)[C@@H]2CCC(=O)O[C@H](C)[C@H](NC(=O)[C@@H](NC(=O)[C@H](CC(C)C)NC(=O)[C@H](CCCCN)NC(=O)[C@H](Cc3ccccc3)NC(=O)[C@H](CC(=O)O)NC(=O)CNC(=O)[C@H](CCCCN)NC(=O)[C@H](CC(C)C)NC(=O)[C@H](CO)NC(=O)CN)C(C)C)C(=O)N[C@@H](CCSC)C(=O)N[C@@H](CCCCN)C(=O)N[C@@H](C(C)C)C(=O)N3CCC[C@H]3C(=O)N2)C(C)C)C(C)C)C(=O)N[C@@H]2C(=O)N[C@@H](C)C(=O)N[C@@H](CC(C)C)C(=O)NCC(=O)N[C@@H](CCC(=O)O[C@@H]2C)C(=O)N1)C(=O)N[C@@H](Cc1ccc(O)cc1)C(=O)N[C@@H]1C(=O)N[C@@H]2C(=O)N[C@@H](CCC(N)=O)C(=O)N[C@@H](C)C(=O)N[C@@H](C(C)C)C(=O)NCC(=O)N[C@@H](CCC(=O)O[C@@H]2C)C(=O)N[C@H](C(=O)NCC(=O)NCC(=O)N[C@@H](CC(=O)O)C(=O)N[C@@H](CC(C)C)C(=O)N2CCC[C@H]2C(=O)N2CCC[C@H]2C(=O)N[C@@H](CC(C)C)C(=O)N[C@@H](Cc2ccccc2)C(=O)O)CCC(=O)O[C@@H]1C | CTSB | enzyme activity, inhibitor | – | – | IC50 | > 200 µM |
| CCn1ccc(-c2cc([C@@H](C)NC(=O)c3cc(N4CCN(C)[C@H](C)C4)ccc3C)c3ccccc3n2)n1 | Vero E6 | – | – | 250 µM | viability | 2.86% and 3.58% and 4.3% |
| CCCNC(=O)[C@H]1O[C@@H]1C(=O)N[C@H](C(=O)N1CCC[C@H]1C(=O)OCC1=C2C(C)=CC(C)=[N+]2[B-](CC)(CC)n2c(C)cc(C)c21)[C@@H](C)CC | CTSB | irreversible inactivation, inhibitor | – | concentration not given, pH 5.5, 25 °C, in dark, added: Z-Arg-Arg-AMC | Ki | 350 ± 2000 µM |
| O=C1NC2(CC2)COc2ncc(F)cc2[C@H]2COCCN2c2ccn3ncc1c3n2 | – | – | Sprague-Dawley rat, female, uterus | oral, 5 mg/kg/day, 4 weeks | organ weight | 0.474 ± 0.093 g |
| CCC(C(=O)Nc1ccccc1C)n1c(SCc2ccc(F)cc2)nc2ncccc21 (stereo not drawn) | CTSB | enzyme activity, inhibitor | – | – | IC50 | > 100 µM |
| CCCNC(=O)[C@H]1O[C@@H]1C(=O)N[C@H](C(=O)N1CCC[C@H]1C(=O)OCC1=C2C(C)=CC(C)=[N+]2[B-](C)(C)n2c(C)cc(C)c21)[C@@H](C)CC | CTSB | irreversible inactivation, inhibitor | – | concentration not given, pH 5.5, 25 °C, in dark, added: Z-Arg-Arg-AMC | Ki | 320 ± 3000 µM |
| CC[C@H](C)[C@H](NC(=O)[C@@H]1CCCN1C(=O)CNC(=O)[C@H](CC(N)=O)NC(=O)CNC(=O)[C@H](CC(=O)O)NC(=O)[C@@H]1CCC(=O)O[C@H](C)[C@H](NC(=O)[C@@H](NC(=O)[C@H](Cc2ccccc2)NC(=O)[C@@H](NC(=O)[C@H](CCCCN)NC(=O)CNC(=O)[C@H](CC(=O)O)NC(=O)CNC(=O)[C@@H](NC(=O)CNC(=O)[C@H](CC(=O)O)NC(=O)[C@@H]2CCC(=O)O[C@H](C)[C@H](NC(=O)[C@@H](NC(=O)[C@H](CC(C)C)NC(=O)[C@H](CCCCN)NC(=O)[C@H](Cc3ccccc3)NC(=O)[C@H](CC(=O)O)NC(=O)CNC(=O)[C@H](CCCCN)NC(=O)[C@H](CC(C)C)NC(=O)[C@H](CO)NC(=O)CN)C(C)C)C(=O)N[C@@H](CCSC)C(=O)N[C@@H](CCCCN)C(=O)N[C@@H](C(C)C)C(=O)N3CCC[C@H]3C(=O)N2)C(C)C)C(C)C)[C@@H](C)O)C(=O)N[C@@H](C)C(=O)N[C@@H](CC(C)C)C(=O)NCC(=O)N1)C(=O)N[C@@H](Cc1ccc(O)cc1)C(=O)N[C@@H]1C(=O)N[C@@H]2C(=O)N[C@@H](CCC(N)=O)C(=O)N[C@@H](C)C(=O)N[C@@H](C(C)C)C(=O)NCC(=O)N[C@@H](CCC(=O)O[C@@H]2C)C(=O)N[C@H](C(=O)NCC(=O)NCC(=O)N[C@@H](CC(=O)O)C(=O)N[C@@H](CC(C)C)C(=O)N2CCC[C@H]2C(=O)N2CCC[C@H]2C(=O)N[C@@H](CC(C)C)C(=O)N[C@@H](Cc2ccccc2)C(=O)O)CCC(=O)O[C@@H]1C | CTSB | enzyme activity, inhibitor | – | – | IC50 | > 200 µM |
| CC(C)C[C@H](NC(=O)[C@H]1O[C@@H]1C(=O)O)C(=O)NCCCCN=C(N)N | CTSB | enzyme activity, inhibitor | – | – | IC50 | 0.015 µM |

For quick reference, copied from above:
| Compound | tested on | assay | test system | conditions | quantity | result |
| --- | --- | --- | --- | --- | --- | --- |
| CCC(C(=O)Nc1ccccc1C)n1c(SCc2ccc(F)cc2)nc2ncccc21 (stereo not drawn) | CTSB | enzyme activity, inhibitor | – | – | IC50 | > 100 µM |
